# Measured values from different studies.
# Numbered parts are unrelated; each lists some results of a single study. Changes are numbered by the printed parent chain.

# Sample 1
# Target: RING finger protein unkempt homolog, zinc fingers 1-6, GST-SBP tag (UNK, Homo sapiens, UniProt Q9C0B0, residues 30-357)
# Sequence of UniProt Q9C0B0 (30-357, looked up): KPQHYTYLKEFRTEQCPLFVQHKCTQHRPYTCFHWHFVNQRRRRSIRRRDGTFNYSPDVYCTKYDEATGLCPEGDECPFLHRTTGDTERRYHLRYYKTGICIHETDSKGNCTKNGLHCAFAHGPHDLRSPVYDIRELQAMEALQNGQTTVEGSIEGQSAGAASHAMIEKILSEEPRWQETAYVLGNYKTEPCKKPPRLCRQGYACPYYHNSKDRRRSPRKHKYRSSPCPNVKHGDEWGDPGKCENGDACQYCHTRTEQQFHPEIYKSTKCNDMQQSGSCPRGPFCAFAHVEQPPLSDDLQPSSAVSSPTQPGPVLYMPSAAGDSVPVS
# Technique: RNA Bind-n-Seq
# Molecule type: RNA
# Medium: in vitro
# Concentration: not given
# Notes: RNA with constant flanks, human and mouse sites, ends assumed
# Baseline: input RNA pool
# Direction: higher = stronger binding
Strand,bound/input enrichment
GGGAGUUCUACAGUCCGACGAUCAAAAUCAAAAACAUUUUCAUAUAUACCAGAGUACUGUAAAAUCUAGGUUUUUUUCAACAUUAGCAGUAAAUUGAGCACUGUUUACUGUUUCAUUGUACCAUGAAACCAUUUGAUUUUUACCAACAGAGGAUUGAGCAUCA,0.468 ratio
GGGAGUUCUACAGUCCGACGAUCAAGUGACUGAGUAUAAUAUUCCAGAAAAAUUUGAAAUCCUAAUUUCUUCCAUAUUUCAUUAAAUUUUUUGCAUACAGGUCUAACAAAUAUGGAUAUGUAUACACAUCCUCUUUAAUGAAGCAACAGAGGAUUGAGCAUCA,0.245 ratio
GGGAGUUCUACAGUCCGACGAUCAUCUCUGCUAUGAACAAGGUUGCAGAAGUUUUACAAGUACCUCCAAUGAGAGUAUAUGAAGUAGCAACUUUUUAUACAAUGUAUAAUCGAAAGCCAGUUGGAAAGUAUCACAUUCAGGUCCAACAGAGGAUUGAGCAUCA,0.114 ratio
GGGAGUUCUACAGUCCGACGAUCUCUAGAAGUCACAGUAUCUUCCUGAUAAAUAUUAAACAAGAGAAUGUAGAGACUGAAAAAAAACUCAGUGGGAAACUUUAUUUGGUUGAUUUGGCUGGGAGCGAAAAGGUCAGCAAAACUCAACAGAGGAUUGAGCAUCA,0.348 ratio
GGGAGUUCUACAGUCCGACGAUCAUGGUGCAGAACGUGAGCUUCAAAUAUACGAAAGACGGGCCUUGCAUCUACAAUAAUCUAGAAUUUGGUAUUGAUCUUGACACACGAGUGGCUCUGGUAGGACCCAAUGGAGCAGGGAAGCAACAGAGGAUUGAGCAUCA,1.3 ratio
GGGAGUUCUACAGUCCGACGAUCGUACUAAGUGAACUGGAGCCCCUAUGUCUGGCAGAACAGGACUUCAUAAGUAAAUUUUUCAAACUACAGCAACAUCAAAGUAUGCCUGGAACUAUGGCUGAAGCAGAGGACCUGGAUGGACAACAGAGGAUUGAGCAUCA,0.415 ratio
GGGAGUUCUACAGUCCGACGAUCCCCAACAACACAGUAGUUGGGUCAUCAUAUGUACUUUUUGUCUUAUCAAUUUUCUUUACAAUAGUAGGACUUCUAUUUGCUGGCAAAGUUUGUUUACCAGGCUGAUGAAUGUCUAAAUUGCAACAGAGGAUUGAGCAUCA,0.141 ratio
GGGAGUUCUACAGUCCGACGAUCAAUUUGUUGUCUGCAAGCAAAUUAUAUAAUAAUAUUACCUUCGAAGAACUUGGAGCUCUUUUAGAGAUCCCUGCAGCUAAGGCGGAAAAGAUAGCAUCUCAAAUGAUAACCGAAGGACGUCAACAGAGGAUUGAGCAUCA,1.61 ratio

# Sample 2
# Target: POU domain, class 5, transcription factor 1, POU domain (Pou5f1, Mus musculus, UniProt P20263, residues 131-289)
# Sequence of UniProt P20263 (131-289, looked up): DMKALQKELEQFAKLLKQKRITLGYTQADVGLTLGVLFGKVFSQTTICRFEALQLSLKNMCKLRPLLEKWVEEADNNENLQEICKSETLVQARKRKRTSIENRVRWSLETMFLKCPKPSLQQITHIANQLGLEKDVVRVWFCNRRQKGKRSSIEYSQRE
# Technique: Spec-seq
# Molecule type: double-stranded DNA, one strand shown
# Medium: in vitro
# Concentration: not given
# Notes: whole probe, mean of replicates
# Baseline: not given
# Direction: lower = stronger binding
# Constant ends, left off below: GAGTCGTCTCGTCAGCAC … CCGTAGAGCACTCAGGTC
Strand,relative binding energy
ATGCCTAA,0.367 ln ratio
ATTGGCAT,0.0174 ln ratio
GCGGTAAT,0.581 ln ratio
ATAGGAAT,0.22 ln ratio
GGTATAAT,0.427 ln ratio
CTCATAAT,0.353 ln ratio
ATGCGGAG,0.437 ln ratio
GCGATAAT,0.56 ln ratio

# Sample 3
# Target: Centromere-binding protein 1, full length, His-tagged (CBF1, Saccharomyces cerevisiae, UniProt P17106, residues 1-351)
# Sequence of UniProt P17106 (whole entry, looked up): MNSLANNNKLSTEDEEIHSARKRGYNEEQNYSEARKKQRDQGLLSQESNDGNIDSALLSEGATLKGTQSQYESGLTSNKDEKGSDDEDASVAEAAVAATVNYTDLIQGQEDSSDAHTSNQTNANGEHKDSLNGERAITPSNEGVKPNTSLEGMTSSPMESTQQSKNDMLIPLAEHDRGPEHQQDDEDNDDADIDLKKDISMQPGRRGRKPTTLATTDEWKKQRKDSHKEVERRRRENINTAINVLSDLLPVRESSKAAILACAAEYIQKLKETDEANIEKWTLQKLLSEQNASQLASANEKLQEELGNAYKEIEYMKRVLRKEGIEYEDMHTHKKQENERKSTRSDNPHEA
# Technique: competition protein-binding microarray
# Molecule type: double-stranded DNA, one strand shown
# Medium: in vitro
# Concentration: 2 µM
# Notes: whole 60-bp probe, lowest competitor level
# Together with: Pho4 competitor, 0.05 µM
# Direction: higher = stronger binding
Strand,fluorescence intensity [a.u.]
CTTCTGTAAATTTGATCAGTGGGTGGACGCGCCCCGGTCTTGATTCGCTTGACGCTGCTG,76.4
CCATTCCAACCAATGGATGTGACGCTCCAAGAGAAAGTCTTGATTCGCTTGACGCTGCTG,51.4
GGTGTCTCTGTCAGCCCCGTGGTCGCCAGCACAGAAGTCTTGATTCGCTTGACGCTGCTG,134
ACAAGTTCATCATTTCACGTGTGGAGCATAGTGTGGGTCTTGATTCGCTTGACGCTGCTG,532
CTTCTGTAAATTTGCAGCGTGGGTGGACGCGCCCCGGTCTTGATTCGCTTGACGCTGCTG,72.1
CTAACGAAGGTTTGTTATGTGGGTGACAAGCCAAGTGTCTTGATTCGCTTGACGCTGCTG,73.7
GTCTTGTCTCATTGACTAGTGGGTGTCCCCACTTCAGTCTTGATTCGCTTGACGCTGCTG,68.1
CTACCACTCTGGAACGCCGTGACGGGCTCAGCCCCGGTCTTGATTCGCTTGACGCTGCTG,49.5

# Further values, each from its own experiment
# Starting sequence: viral docking peptide; CKVKRKLFGSENI
Substitution,target,test,test system,conditions,how to read,endpoint,result
F8L,"CCNB2, cyclin fold, Cln2 fusion (human)","yeast growth competition, sequencing",yeast,weak parent motif,"baseline: not given, higher = stronger binding",normalised enrichment score,0.067
